Assay results of several laboratories.
Protocols differ between the studies behind these lines. Values joined by “and” are separate records of one study, mostly repeats; a detail may differ. ± gives the spread as reported.
Matrix protein 2 S31N: Matrix protein 2 (Influenza A virus, UniProt P0DOF5, S31N)
rep main protease: Replicase polyprotein 1ab, main protease (rep, Severe acute respiratory syndrome coronavirus 2, UniProt P0DTD1)

Clc1ncc(CNC23CC4CC(CC(C4)C2)C3)s1 — inhibition (Matrix protein 2 S31N; proton channel activity, inhibitor; Influenzavirus A, S31N mutant; 100 µM): 42%
CC(C)C(=O)OC[C@H]1O[C@@](C#N)(n2ccc(N)nc2=O)[C@H](O)[C@@H]1O — EC90 (SARS-CoV-2; viral replication; Calu-3, Gamma): 3500 ± 400 nM
Cc1nc(CNC23CC4CC(CC(C4)C2)C3)c[nH]1 — inhibition (Matrix protein 2 S31N; proton channel activity, inhibitor; Influenzavirus A, S31N mutant; 100 µM): 16%
OC12CC3CC(C1)CC(NCc1cnc(N4CCCCC4)nc1)(C3)C2 — inhibition (Matrix protein 2 S31N; channel activity, inhibitor; 100 µM): 67.2 ± 1.5%
Brc1ncc(CNC23CC4CC(CC(C4)C2)C3)s1 — inhibition (Matrix protein 2 S31N; proton channel activity, inhibitor; Influenzavirus A, S31N mutant; 100 µM): 47%
O=C(NC1CCN(c2ncnc3[nH]cnc23)CC1)c1cccc(NS(=O)(=O)c2ccc(C(F)(F)F)cc2)c1 — ΔTm (Replicase polyprotein 1ab, nsp14 (rep, Severe acute respiratory syndrome coronavirus 2, UniProt P0DTD1); thermal shift; 15.63 µM): 2.5 °C
CC(C)(C)c1ncc(CNC23CC4CC(CC(C4)C2)C3)s1 — inhibition (Matrix protein 2 S31N; proton channel activity, inhibitor; Influenzavirus A, S31N mutant; 100 µM): 38%
COc1ccc(CNC23CC4C5CC6CC4C(C2)C(C6)C5C3)c(O)c1 — kon (Matrix protein 2 S31N; binding): < 43 M⁻¹ s⁻¹
CC[C@H](C)[C@H](NC(=O)[C@H](CCCCN)NC(=O)[C@@H](NC(=O)[C@H](CCC(N)=O)NC(=O)[C@H](CCCNC(=N)N)NC(=O)[C@@H]1CSCC(=O)N[C@H](Cc2ccc(O)cc2)C(=O)N[C@@H](CC(C)C)C(=O)N[C@@H](CCC(N)=O)C(=O)N[C@@H](Cc2ccc(O)cc2)C(=O)N[C@@H](C)C(=O)N[C@@H](C(C)C)C(=O)N[C@@H](CC(C)C)C(=O)N[C@@H](CCCNC(=N)N)C(=O)N[C@@H](Cc2c[nH]cn2)C(=O)N[C@@H](CCCCN)C(=O)N[C@@H](CCCNC(=N)N)C(=O)N[C@@H](CCCNC(=N)N)C(=O)N[C@@H](CCC(=O)O)C(=O)N1)[C@@H](C)CC)C(=O)N[C@@H](Cc1c[nH]c2ccccc12)C(=O)N[C@@H](Cc1ccccc1)C(=O)N[C@@H](CCC(N)=O)C(=O)N[C@@H](CC(N)=O)C(=O)N[C@@H](CCCNC(=N)N)C(=O)N[C@@H](CCCNC(=N)N)C(=O)N[C@@H](CCSC)C(=O)N[C@@H](CCCCN)C(=O)N[C@@H](Cc1c[nH]c2ccccc12)C(=O)N[C@@H](CCCCN)C(=O)N[C@@H](CCCCN)C(N)=O — Ki (rep main protease; enzyme activity, inhibitor): 9 nM
O=P(O)(O)C(O)(Cc1cccc(-c2cccc3c2oc2ccccc23)c1)P(=O)(O)O — Kd (Tuberculosinyl adenosine transferase (Mycobacterium tuberculosis, UniProt P9WJ61)): ~560 nM
CC(C)C[C@@H]1NC(=O)[C@H](C(C)C)NC(=O)[C@H](C)NC(=O)[C@H](Cc2ccc(O)cc2)NC(=O)[C@H](CCC(N)=O)NC(=O)[C@H](CC(C)C)NC(=O)[C@@H](Cc2ccc(O)cc2)NC(=O)CSC[C@@H](C(N)=O)NC(=O)[C@H](CCC(=O)O)NC(=O)[C@H](CCCNC(=N)N)NC(=O)[C@H](CCCNC(=N)N)NC(=O)[C@H](CCCCN)NC(=O)[C@H](Cc2c[nH]cn2)NC(=O)[C@H](CCCNC(=N)N)NC1=O — Ki (rep main protease; enzyme activity, inhibitor): 14 nM
N[C@@H](CCC(=O)N[C@@H](CS[Se]Cc1ccc(C(=O)Nc2cc(C(F)(F)F)c(Br)c(C(F)(F)F)c2)cc1)C(=O)NCC(=O)O)C(=O)O — modified protein mass (Low molecular weight protein-tyrosine phosphatase A (Mycobacterium tuberculosis, UniProt P9WIA1, C16A/C53A)): 18.6 kDa
CC(C)(C)[C@H](NC(=O)NC1(CS(=O)(=O)C(C)(C)C)CCCCC1)C(=O)N1C[C@H]2[C@@H]([C@H]1C(=O)N[C@H](C#N)C[C@@H]1CCNC1=O)C2(C)C — ΔS (Replicase polyprotein 1ab, main protease H41A (rep, Severe acute respiratory syndrome coronavirus 2, UniProt P0DTD1, H3304A); pH 7.2): 20.9 cal/mol/K
O=c1cc(-c2ccc(O)cc2)oc2c([C@@H]3OC[C@H](O)[C@H](O)[C@H]3O)c(O)c([C@@H]3O[C@H](CO)[C@@H](O)[C@H](O)[C@H]3O)c(O)c12 — inhibition (Replicase polyprotein 1ab, main protease R188A (rep, Severe acute respiratory syndrome coronavirus 2, UniProt P0DTD1, R3451A); 3CL protease activity, inhibitor; concentration not given, 3CLpro R188A mutant): 40.3%
c1nc(N2CCCCC2)ncc1CNC12CC3CC(CC(C3)C1)C2 — inhibition (Matrix protein 2 (Influenza A virus, UniProt P0DOF5); channel activity, inhibitor; 100 µM): 12 ± 0.8%
Cc1ccc(N2CCN(C)CC2)cc1C(=O)NC1(c2ccc3c4c(cccc24)CC3)CC1 — Kd (Replicase polyprotein 1a, papain-like protease (Severe acute respiratory syndrome coronavirus 2, UniProt P0DTC1); binding): 282 nM and 114 nM
c1nc(N2CCCCCC2)ncc1CNC12CC3CC(CC(C3)C1)C2 — inhibition (Matrix protein 2 S31N; channel activity, inhibitor; 100 µM): 83.8 ± 2.8%
C1C2C1C1C3C4C5C6CC6C4C14CNCC54C23 (stereo not drawn) — activity (Matrix protein 2 (Influenza A virus, UniProt P0DOF5, V27A); ion channel, inhibitor; A/Udorn/72; concentration not given): inactive

Excerpt of the above:
c1nc(N2CCCCC2)ncc1CNC12CC3CC(CC(C3)C1)C2 — inhibition (Matrix protein 2 (Influenza A virus, UniProt P0DOF5); channel activity, inhibitor; 100 µM): 12 ± 0.8%
Cc1ccc(N2CCN(C)CC2)cc1C(=O)NC1(c2ccc3c4c(cccc24)CC3)CC1 — Kd (Replicase polyprotein 1a, papain-like protease (Severe acute respiratory syndrome coronavirus 2, UniProt P0DTC1); binding): 282 nM and 114 nM
